# Results gathered from unrelated publications.
# Each numbered part is a random draw from the data of one study; scales do not carry over between parts. Values joined by “and” are separate records of one study, mostly repeats; a detail may differ. Positions count from the first letter of the parent shown.

# Sample 1
# Target: vanadate, free oxyanion
# Technique: microfluidic competitive inhibition
# Sample: in vitro, cell-free expressed
# Concentration: not given
# Notes: derived from inhibition constants, unchanged parent 676 nM
# Direction: lower = stronger binding
# Parent: PafA, mature enzyme, eGFP fusion (Elizabethkingia meningoseptica, UniProt Q9KJX5); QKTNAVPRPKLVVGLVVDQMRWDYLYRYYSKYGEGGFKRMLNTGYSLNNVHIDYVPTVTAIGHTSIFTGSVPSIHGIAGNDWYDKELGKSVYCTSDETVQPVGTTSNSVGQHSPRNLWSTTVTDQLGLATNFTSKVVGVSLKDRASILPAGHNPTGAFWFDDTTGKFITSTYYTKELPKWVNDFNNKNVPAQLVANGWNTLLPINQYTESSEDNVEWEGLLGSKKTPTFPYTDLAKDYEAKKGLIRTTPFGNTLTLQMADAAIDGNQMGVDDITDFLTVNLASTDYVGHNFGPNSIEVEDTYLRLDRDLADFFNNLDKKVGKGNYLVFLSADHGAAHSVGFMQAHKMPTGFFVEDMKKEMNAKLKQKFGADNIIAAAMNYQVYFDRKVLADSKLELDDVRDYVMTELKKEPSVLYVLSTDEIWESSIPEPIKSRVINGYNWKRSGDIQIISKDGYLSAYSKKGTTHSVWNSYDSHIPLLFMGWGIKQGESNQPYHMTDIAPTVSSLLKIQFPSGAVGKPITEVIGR
Change,oxyanion analog dissociation constant
I52G,1560 nM
D213V,1930 nM
S140G,1130 nM

# Sample 2
# Structure (SMILES): CC(=O)N[C@@H](Cc1c[nH]c2ccccc12)C(=O)N[C@@H](CCC(=O)C=[N+]=[N-])C(=O)OC(C)C
# Route: subcutaneous
# Dose: 0.3 mg/kg/day DON equivalent
# Time: 5 days
# Direction: higher = more metabolite
test,system,metabolite peak area
"UPLC-MS/MS metabolomics, refers to: cytosine","EL4, C57BL/6 CES1-/- mice, EL4 tumour, tumour",596000 a.u. and 1.04e+06 a.u. and 1.28e+06 a.u. and 1.36e+06 a.u. and 1.47e+06 a.u. and 1.01e+06 a.u.
"UPLC-MS/MS, refers to: AICA ribonucleotide","C57BL/6 CES1-/- mice, EL4 tumour",557000 a.u. and 365000 a.u. and 820000 a.u. and 855000 a.u. and 460000 a.u. and 299000 a.u.
"UPLC-MS/MS, refers to: 5'-GMP","C57BL/6 CES1-/- mice, EL4 tumour",1.14e+07 a.u. and 3.1e+07 a.u. and 1.44e+07 a.u. and 3.6e+07 a.u. and 3.51e+07 a.u. and 2.47e+07 a.u.
"UPLC-MS/MS metabolomics, refers to: ergothioneine","EL4, C57BL/6 CES1-/- mice, EL4 tumour, tumour",9.58e+07 a.u. and 1.54e+08 a.u. and 1.14e+08 a.u. and 9.79e+07 a.u. and 8.29e+07 a.u. and 1.24e+08 a.u.
"UPLC-MS/MS metabolomics, refers to: cystine","EL4, C57BL/6 CES1-/- mice, EL4 tumour, tumour",2.28e+06 a.u. and 2.38e+06 a.u. and 1.43e+07 a.u. and 6.27e+06 a.u. and 6.51e+06 a.u. and 6.16e+06 a.u.
"UPLC-MS/MS, refers to: trans-urocanate","C57BL/6 CES1-/- mice, EL4 tumour",2.65e+06 a.u. and 1.14e+07 a.u. and 8.36e+06 a.u. and 2.15e+07 a.u. and 5.35e+06 a.u.
"UPLC-MS/MS metabolomics, refers to: cysteine","EL4, C57BL/6 CES1-/- mice, EL4 tumour, tumour",1e+07 a.u. and 1.13e+07 a.u. and 4.92e+06 a.u. and 7.56e+06 a.u. and 9.75e+06 a.u. and 3.92e+06 a.u.
"UPLC-MS/MS, refers to: trigonelline","C57BL/6 CES1-/- mice, EL4 tumour",4.68e+07 a.u. and 3.06e+07 a.u. and 3.04e+07 a.u. and 2.32e+07 a.u. and 2.48e+07 a.u. and 3.99e+07 a.u.

# Sample 3
# Host: human
# Sample: microsomes or S9
# Concentration: 2 µM
# Time: 0.5 h
Structure (SMILES),remaining compound
CCc1[nH]nc(NCc2cc(Cl)cc(Cl)c2OC)c1C,0.157%
COCc1cc(C)nc2sc(-c3nc(N)nc(N(C)C)n3)c(N)c12,14.5%
CCc1ncc(CNC(=O)c2c[nH]c(=O)cc2OC)o1,80%
O=C(NCC(F)(F)F)c1nnn(-c2ccc(NS(=O)(=O)c3cccnc3)cc2)n1,86.1%
CO[C@@H]1COC[C@@H]1NC(=O)NC1Cc2ccccc2C1,> 100%
OC1(CNCc2ccccc2)CCc2ccccc21 (stereo not shown),85%
CCCC[S+]([O-])c1[nH]c2c(C(C)C)cccc2c(=O)c1C(C)=O (stereo not shown),13.7%
CN1CCN(CC2COc3cc4ncnc(Nc5ccc(F)c(Cl)c5)c4cc3O2)CC1 (stereo not shown),82.7%

# Sample 4
# Target: 5-hydroxytryptamine receptor 2C (HTR2C, Homo sapiens, UniProt P28335)
# UniProt P28335, sequence (whole entry, looked up): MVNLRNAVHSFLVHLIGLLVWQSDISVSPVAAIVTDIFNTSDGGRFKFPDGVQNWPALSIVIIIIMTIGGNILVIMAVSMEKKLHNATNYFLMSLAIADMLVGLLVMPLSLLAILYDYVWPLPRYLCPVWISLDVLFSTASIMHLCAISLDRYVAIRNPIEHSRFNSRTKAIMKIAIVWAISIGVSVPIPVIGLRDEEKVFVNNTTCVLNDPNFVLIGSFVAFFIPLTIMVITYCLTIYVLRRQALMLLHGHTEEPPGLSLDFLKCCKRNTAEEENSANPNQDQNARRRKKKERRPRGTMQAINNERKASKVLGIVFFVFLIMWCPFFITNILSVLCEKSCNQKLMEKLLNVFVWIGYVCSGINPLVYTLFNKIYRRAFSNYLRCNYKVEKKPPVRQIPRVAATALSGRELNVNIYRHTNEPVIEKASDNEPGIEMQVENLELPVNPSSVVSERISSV
# Observed: ligand displacement
# Concentration: 10 µM
SMILES,inhibition [%]
N#CC1(c2ccccn2)CCN(Cc2cc(C(=O)O)c(=O)n3ccccc23)CC1,10.5
Cc1cc2c(-c3ccco3)cnc(N[C@@H]3CCN(C)C[C@H]3C(=O)NC3CCCCC3)c2[nH]c1=O,14
CNC(=N)NCCC[C@H](NC(=O)[C@H](CC(C)C)NC(=O)NNC(=O)[C@H](Cc1ccccc1)NC(=O)[C@H](CO)NC(=O)[C@H](CC(N)=O)NC(=O)[C@@H](Cc1ccncc1)NC(=O)[C@H](N)Cc1ccc(O)cc1)C(=O)N[C@@H](Cc1ccccc1)C(N)=O,12.8

# For quick reference, copied from above (sample 3):
Structure (SMILES),remaining compound
CCc1ncc(CNC(=O)c2c[nH]c(=O)cc2OC)o1,80%
COCc1cc(C)nc2sc(-c3nc(N)nc(N(C)C)n3)c(N)c12,14.5%
CO[C@@H]1COC[C@@H]1NC(=O)NC1Cc2ccccc2C1,> 100%
